Measured values from different studies.
Each numbered part is a random draw from the data of one study; scales do not carry over between parts. Changes are numbered by the printed parent chain.

Series 1
Target: ABI1, truncated, D143A, DHFR fusion (Arabidopsis thaliana)
Method: DHFR PCA, deep sequencing
Matrix: yeast
Setting: methotrexate growth selection, single substitutions
Together with: (+)-ABA 2500 µM
Baseline: wild-type fitted maximum
Direction: higher = stronger binding
Quantity: relative binding score
Parent: PYL1, truncated, DHFR fusion (Arabidopsis thaliana); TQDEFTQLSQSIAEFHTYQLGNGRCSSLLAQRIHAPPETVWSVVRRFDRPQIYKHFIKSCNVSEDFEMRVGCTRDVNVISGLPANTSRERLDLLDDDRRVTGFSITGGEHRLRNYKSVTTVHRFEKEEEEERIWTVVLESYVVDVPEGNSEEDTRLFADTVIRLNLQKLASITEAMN
H122M: 82.1%
E127K: 98.7%
T106G: 83.6%
Y115V: -3.44%
T17P: 95.5%
V136G: 61.9%
T6H: 99.5%
T73F: 97.3%
E152L: 93.7%
R46M: 99%
G148F: 84.6%
E128Y: 101%
Q2Y: 93.7%
L91W: 80.3%
H55S: 96.1%
S9D: 101%
K54D: -28.6%
D159F: 40.5%
S9R: 104%
V70S: 89.2%
K168I: 92.1%
E174L: 89.4%
T106C: 107%
Y53W: 96.9%
S27C: 87.9%

Series 2
Target: RNA binding protein fox-1 homolog 2, RRM domain, GST-SBP tag (RBFOX2, Homo sapiens, UniProt O43251-10, residues 100-194)
Method: RNA Bind-n-Seq
Molecule type: RNA
Matrix: in vitro
Concentration: 365 nM
Setting: natural RNA segment, single round, ends assumed
Baseline: no-protein control
Direction: higher = stronger binding
Quantity: RBNS enrichment (R)
Construct (chain): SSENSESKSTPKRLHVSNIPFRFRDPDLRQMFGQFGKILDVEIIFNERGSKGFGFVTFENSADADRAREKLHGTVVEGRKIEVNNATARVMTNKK
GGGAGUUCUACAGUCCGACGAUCUGCUUUUAGUGUUUGUACUGCUGCUGGUCAGGACAUUAAAAUAUUGAAGUGUUUUUAAAAAUUAAAGAAGAAGAAAAGUAAAAGAGCUUACCACUGGCGCCUAUGCGAUCUGGAAUUCUCGGGUGCCAA: 0.696
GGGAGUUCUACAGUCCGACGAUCUCACCAACCCCAGCUGGGACCACAGGAUGUUGAGCUGUCUUCCCCAGGCCCAGCAGCCAUGCCCCGCCAAGAAGCAUGCUGGGAGUAAGGUCUUUGCCAUCAAGGGUAUUUGGAAUUCUCGGGUGCCAA: 0.356
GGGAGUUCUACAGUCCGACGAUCCGUCUUUCCUUUGUAUUGGAGAAGGACUGGGUCAGAGAUCUGUUGGAGAGAGAGAAUAAAGAGAUUAUUUUUCAUUAUUUUUAAAUGGUUGUUUUUGUUUUAAUUUGCACUGGAAUUCUCGGGUGCCAA: 1.52
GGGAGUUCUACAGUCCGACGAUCCAAAUCUGUGGAUAUUCCAUUUGUAGGACCAAGUCGACAUGCCCAUCCUGACAUUGUAUGCUACGAGAACUCUUCUGAUGAUGGAAUUUCGAUUAAAGUGCACUGAAAGAUGGAAUUCUCGGGUGCCAA: 0.77
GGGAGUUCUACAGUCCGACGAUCAGGACAAAGCCAGGAGUGGAGCUGAGGAAGACUAAGGUAGAAACUCUGUGCCCAAGCUGACACAGAACCCCAAAUGUGUGGGAGGAAUGGACCCCAGAGCUUUGGGCCCAUGGAAUUCUCGGGUGCCAA: 0.671
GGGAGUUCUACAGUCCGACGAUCGGAUAUAAGAUUAAUGGAAUGUAUAUUUUUAUAUAAGACGUAUACGGCACCUUCUUGAAAAGGAAGCAUUUGAACUUGUUCCUCCCUAUAGUUCUAUUGCCUUAUAUGCAUGGAAUUCUCGGGUGCCAA: 7.57
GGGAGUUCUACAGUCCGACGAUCCAGUGUGACUUGUCCUGAUCAGGUAGAGAGAGCUUGUGGUCAUAUUCCCCAAUGGGCAUGCCUGUGGGAUGUGGGGAGGGGCAGAGAGGCAGAAUUCCACCUGUUCGUUGUGGAAUUCUCGGGUGCCAA: 6.95
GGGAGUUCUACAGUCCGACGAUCGUCGCAAAUGAAGCUGCCCCACUCCCCCGGCACCCUGCAGCUUUAGUUUACUAAACUAGAAGUCCUCAUAGUUUAAAAUGGCCUCAGCAGGCCUAGUGUAUACAAACUGGUGGAAUUCUCGGGUGCCAA: 0.192

Series 3
Target: RING finger protein unkempt homolog, zinc fingers 1-6, GST-SBP tag (UNK, Homo sapiens, UniProt Q9C0B0, residues 30-357)
UniProt Q9C0B0, sequence (30-357, looked up): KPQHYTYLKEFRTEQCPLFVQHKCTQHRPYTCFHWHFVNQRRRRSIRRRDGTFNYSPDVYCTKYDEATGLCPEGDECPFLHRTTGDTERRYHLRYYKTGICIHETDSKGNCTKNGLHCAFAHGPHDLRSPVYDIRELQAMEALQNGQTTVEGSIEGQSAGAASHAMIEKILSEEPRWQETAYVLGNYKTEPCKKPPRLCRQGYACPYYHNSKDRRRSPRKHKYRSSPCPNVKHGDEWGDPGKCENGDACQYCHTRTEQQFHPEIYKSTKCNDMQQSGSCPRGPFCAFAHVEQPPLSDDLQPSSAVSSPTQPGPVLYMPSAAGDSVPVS
Method: RNA Bind-n-Seq
Molecule type: RNA
Matrix: in vitro
Concentration: not given
Setting: RNA with constant flanks, human-mouse chimeric sites, ends assumed
Baseline: input RNA pool
Direction: higher = stronger binding
Quantity: bound/input enrichment
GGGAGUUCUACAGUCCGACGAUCUCAGUCUUUUUGUACAGCUUUGUAAAUUCUUAACAUUUUUAUAUUGCCAUGUUUAUUUUGUUUGGGUAAUUUGGUUCAUACAUGGCCUAGCUAAGGUAAUGAACAUCUUUUUCAGUAAUUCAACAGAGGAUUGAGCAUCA: 1.14 ratio
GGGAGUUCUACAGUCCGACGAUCGGCUGCUGGUGACUGUCCUGGAGUGGCUGGAGUUCCCGCCGGAGCGCGGCCAGACUAAUUUUAGAAAAUGCCAAGUAGGAAGUUUGUCGAUGGUGAAGUGGUCAGAGGUCGAUGGCCUGGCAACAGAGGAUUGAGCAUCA: 2.57 ratio
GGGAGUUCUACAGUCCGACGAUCUGGCGCCUGCGCUCCCCACUCGUGUUUUUAAGUGUAUUUUUAUAAGAUACAUGUAUUUACAAUUGAGUUUUUGAUUAUAUAAUACUGAAUGCUACUGGAGAUUAUGAAAAAUGUUUCAAUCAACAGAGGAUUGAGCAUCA: 0.256 ratio
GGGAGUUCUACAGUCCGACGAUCUUUGUUUGUAACUUAUCUCUGUAAAAGGUUUCUCCCUUACUGUCAAAAAAUAUGCAUGUAUAGUAAUUAGGACUUCAUUCCUCCAUGUUUUCUUCCCUUAUCUUACUGUCAUUGUCCUUACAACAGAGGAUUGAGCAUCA: 1.01 ratio
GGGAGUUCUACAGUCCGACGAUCGACUUGGGACCGUCCUGGGCUAGUACAAAUAGCGGCAUGGAGGCUCAGAGAGGAAAGUUUGUUAGUGGAGGCAGUGGUAGAGGCCGUCAUGUACGGUCCUUUACUCGAUAGAUGUGUUCUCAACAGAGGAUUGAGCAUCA: 0.681 ratio
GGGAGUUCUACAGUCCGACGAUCGUCAACAGUUGUCUCAACCCCAUCCUCUAUGCUUUCUUGGAUGAGAACUUCAAGGCCUGCUUCCGCAAGUUCUGCUGUGCAUCUGCCCUGCGCCGGGACGUGCAGGUGUCUGACCGCGUGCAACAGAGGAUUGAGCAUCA: 0.371 ratio
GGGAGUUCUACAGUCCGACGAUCGAGUCGAGCAAACUUGAAACUACAGAAUUUACAAAAACCUCAGUGUUCACUUGCUUGGCGAUAGCAUUGGGGUUUUAUAGGUUCUGGAAGGAGAACUGACGAUGAUGCUGCCGCUGCUGCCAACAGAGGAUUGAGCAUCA: 0.188 ratio
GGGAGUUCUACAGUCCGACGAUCGAGUCGAGCAAACUUGAAACAAUUCGUUAUCUUGCAGAGCUUCGGUGCACUUGCUUGGCGAUAGCAUUGGGGUUUUAUAGGUUCUGGAAGGAGAACUUUAAUGCUCACUGCCGCUGCUGCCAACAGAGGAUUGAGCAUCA: 0.254 ratio

Series 4
Target: CCNF, cyclin fold, Cln2 fusion (human)
Method: yeast growth competition, sequencing
Matrix: yeast
Setting: strong parent motif
Baseline: not given
Direction: higher = stronger binding
Quantity: normalised enrichment score
Parent: PKN2 docking peptide (human); VSAVRKLDFSDTM
K6S: 6.44
T12L: 7.25
R5N: 0.295
D8Q: 7.77
V4Y: 6.9
L7V: 1.23
A3N: 2.24
T12H: 7.01
D11C: 7.35
R5F: 0.0569
A3P: 5.17
A3C: 6.83
T12V: 6.49
A3W: 5.45
K6C: 6.52
S10L: 7.4
L7N: -0.00565
V4T: 5.72

Excerpt of the above (series 2):
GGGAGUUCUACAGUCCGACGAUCCGUCUUUCCUUUGUAUUGGAGAAGGACUGGGUCAGAGAUCUGUUGGAGAGAGAGAAUAAAGAGAUUAUUUUUCAUUAUUUUUAAAUGGUUGUUUUUGUUUUAAUUUGCACUGGAAUUCUCGGGUGCCAA: 1.52
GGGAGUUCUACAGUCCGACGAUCCAAAUCUGUGGAUAUUCCAUUUGUAGGACCAAGUCGACAUGCCCAUCCUGACAUUGUAUGCUACGAGAACUCUUCUGAUGAUGGAAUUUCGAUUAAAGUGCACUGAAAGAUGGAAUUCUCGGGUGCCAA: 0.77
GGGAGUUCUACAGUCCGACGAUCAGGACAAAGCCAGGAGUGGAGCUGAGGAAGACUAAGGUAGAAACUCUGUGCCCAAGCUGACACAGAACCCCAAAUGUGUGGGAGGAAUGGACCCCAGAGCUUUGGGCCCAUGGAAUUCUCGGGUGCCAA: 0.671
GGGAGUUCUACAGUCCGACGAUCGGAUAUAAGAUUAAUGGAAUGUAUAUUUUUAUAUAAGACGUAUACGGCACCUUCUUGAAAAGGAAGCAUUUGAACUUGUUCCUCCCUAUAGUUCUAUUGCCUUAUAUGCAUGGAAUUCUCGGGUGCCAA: 7.57
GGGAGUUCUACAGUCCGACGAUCCAGUGUGACUUGUCCUGAUCAGGUAGAGAGAGCUUGUGGUCAUAUUCCCCAAUGGGCAUGCCUGUGGGAUGUGGGGAGGGGCAGAGAGGCAGAAUUCCACCUGUUCGUUGUGGAAUUCUCGGGUGCCAA: 6.95
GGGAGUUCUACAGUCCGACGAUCGUCGCAAAUGAAGCUGCCCCACUCCCCCGGCACCCUGCAGCUUUAGUUUACUAAACUAGAAGUCCUCAUAGUUUAAAAUGGCCUCAGCAGGCCUAGUGUAUACAAACUGGUGGAAUUCUCGGGUGCCAA: 0.192
